Measurements of several laboratories.
A part holds a random share of what one study measured. Substitutions count along the parent as printed.

Sample 1
Target: CCNF, cyclin fold, Cln2 fusion (human)
Method: yeast growth competition, sequencing
Sample: yeast
Setting: weak parent motif
Relative to: not given
Reading: higher = stronger binding
Starting sequence: MASTL docking peptide (human); PMIAKNLMCELDE
Variant | normalised enrichment score
PMIAKNLMFELDE [C9F] | 1.36
PMIAFNLMCELDE [K5F] | -0.601
PMAAKNLMCELDE [I3A] | 0.143
PMIAKNLMCCLDE [E10C] | 0.205
PMIPKNLMCELDE [A4P] | 0.171
PMIAKNLWCELDE [M8W] | 0.144
PCIAKNLMCELDE [M2C] | -0.134
PMIAKNLMLELDE [C9L] | 0.659
PGIAKNLMCELDE [M2G] | -0.118
PMIAKNRMCELDE [L7R] | -0.0676
PMIAKNLMCGLDE [E10G] | -0.165
PMDAKNLMCELDE [I3D] | -0.348
PMIAKHLMCELDE [N6H] | 0.138
PKIAKNLMCELDE [M2K] | 0.352
PMRAKNLMCELDE [I3R] | -0.179
PMIEKNLMCELDE [A4E] | -0.27
PMIAKNLDCELDE [M8D] | 0.229
PMLAKNLMCELDE [I3L] | 0.153
PMIAWNLMCELDE [K5W] | -0.246
PMIAKNLTCELDE [M8T] | -0.15
PMIAKNLMCVLDE [E10V] | 0.543
PMIAKNLMIELDE [C9I] | -0.121
PMIAKNLHCELDE [M8H] | -0.311
PMIAKNLMAELDE [C9A] | 0.341
PMIARNLMCELDE [K5R] | 1.71

Sample 2
Target: Sal-like protein 4, full length isoform A (SALL4, Homo sapiens, UniProt Q9UJQ4, residues 1-1053)
Sequence of UniProt Q9UJQ4 (whole entry, looked up): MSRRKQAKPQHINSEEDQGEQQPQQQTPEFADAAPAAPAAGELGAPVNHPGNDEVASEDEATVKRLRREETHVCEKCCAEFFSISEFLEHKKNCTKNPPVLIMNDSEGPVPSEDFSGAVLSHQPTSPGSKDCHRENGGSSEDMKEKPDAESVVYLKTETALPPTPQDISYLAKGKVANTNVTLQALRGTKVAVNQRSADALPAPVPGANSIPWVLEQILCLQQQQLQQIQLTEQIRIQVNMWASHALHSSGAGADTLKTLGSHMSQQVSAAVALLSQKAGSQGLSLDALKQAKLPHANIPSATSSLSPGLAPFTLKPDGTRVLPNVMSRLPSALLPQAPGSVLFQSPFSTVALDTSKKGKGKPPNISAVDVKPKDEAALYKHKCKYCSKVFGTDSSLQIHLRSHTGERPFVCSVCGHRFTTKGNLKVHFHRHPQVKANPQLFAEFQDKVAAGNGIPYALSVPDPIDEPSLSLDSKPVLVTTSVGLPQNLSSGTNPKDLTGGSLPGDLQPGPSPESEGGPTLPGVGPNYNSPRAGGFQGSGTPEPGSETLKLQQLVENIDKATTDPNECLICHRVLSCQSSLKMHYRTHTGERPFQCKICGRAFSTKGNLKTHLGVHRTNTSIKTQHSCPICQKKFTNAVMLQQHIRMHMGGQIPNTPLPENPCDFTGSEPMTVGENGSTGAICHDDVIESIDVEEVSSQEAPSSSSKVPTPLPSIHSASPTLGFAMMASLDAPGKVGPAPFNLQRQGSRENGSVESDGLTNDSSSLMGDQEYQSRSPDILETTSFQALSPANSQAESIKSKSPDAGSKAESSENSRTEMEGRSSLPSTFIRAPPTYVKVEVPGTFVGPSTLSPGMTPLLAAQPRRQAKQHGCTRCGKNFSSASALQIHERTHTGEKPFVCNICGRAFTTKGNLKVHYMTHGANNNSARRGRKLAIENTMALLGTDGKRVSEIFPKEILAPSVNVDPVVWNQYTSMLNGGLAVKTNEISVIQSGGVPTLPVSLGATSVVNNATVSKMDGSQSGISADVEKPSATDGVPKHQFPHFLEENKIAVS
Method: universal PBM
Form: double-stranded DNA, one strand shown
Sample: in vitro
Concentration: 600 nM
Setting: 8-mer, flanks averaged, mean of replicates
Reading: higher = stronger binding
Sequence | E-score
CGCTGCCC | -0.38
CCGAGCCA | -0.24
CGGGGCTC | -0.341
AATAAGTG | 0.261
GATCTACA | 0.0769
GCAAACCA | 0.0962
GAGGGTAA | -0.0699
CGCTGTAG | -0.181
CAACCCGC | -0.297
CTTAGTAA | 0.141
AGATGAAC | -0.0293
AAGGCGGA | -0.149
CAGAGGGA | -0.287
AATGCCAT | 0.148
CACAAGTC | -0.000355
AAATCAAG | 0.183
TATTCAGA | 0.0928
ATTGGAGC | 0.0462
CTGCCGAA | -0.105
GTAGTACA | -0.00255
ATTCACTG | 0.138
GTGACTTA | 0.0799
CATTTCAC | 0.105

Sample 3
Target: PABPC1L2, full length, GST fusion (mouse, UniProt A0ABA7IW68)
Method: RNAcompete
Form: RNA
Sample: in vitro
Concentration: 20 nM
Setting: 7-mer, probes averaged, single round
Relative to: mean of 7-mers
Reading: higher = stronger binding
Target sequence (chain): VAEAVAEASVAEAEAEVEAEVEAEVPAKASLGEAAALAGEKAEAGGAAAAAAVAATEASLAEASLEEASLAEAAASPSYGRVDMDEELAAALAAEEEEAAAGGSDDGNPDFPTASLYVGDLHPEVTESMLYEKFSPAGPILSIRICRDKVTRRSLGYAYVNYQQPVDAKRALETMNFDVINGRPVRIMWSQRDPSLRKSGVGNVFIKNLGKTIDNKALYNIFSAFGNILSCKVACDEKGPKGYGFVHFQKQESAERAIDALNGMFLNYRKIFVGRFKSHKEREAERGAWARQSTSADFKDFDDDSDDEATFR
Sequence | 7-mer Z-score
CCUUGGU | -0.24
UCAUAAU | -0.318
CUCCGUG | -0.238
CCUUAUG | -0.322
GCGGAGC | 0.0152
CAAAGAU | 0.811
GAAUAGG | 0.0986
GCCAUGA | -0.0881
CGUUGAC | -0.164
CCCUUCG | -0.387
GUUAACG | -0.0591
CAAGUCG | -0.282
GGCAAAU | 0.318
GGCUUAG | -0.0047
CGCAUAG | -0.202
CCCUUUG | -0.479
CUGCGAA | -0.0754
UAGUUCA | -0.287
GUGAGGG | 0.263
UCUGCCA | -0.3
CAUUACU | -0.141
UAAUUGA | -0.0428

Sample 4
Target: RNA binding protein fox-1 homolog 2, RRM domain, GST-SBP tag (RBFOX2, Homo sapiens, UniProt O43251-10, residues 100-194)
Method: RNA Bind-n-Seq
Form: RNA
Sample: in vitro
Concentration: 365 nM
Setting: natural RNA segment, single round, ends assumed
Relative to: no-protein control
Reading: higher = stronger binding
Residues (chain): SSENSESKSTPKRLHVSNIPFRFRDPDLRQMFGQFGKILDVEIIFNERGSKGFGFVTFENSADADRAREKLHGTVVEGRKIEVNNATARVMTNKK
Sequence | RBNS enrichment (R)
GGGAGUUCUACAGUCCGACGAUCGCACAGCAGAAAACAGAAUUGAAGUUGGGAAACUCUAGAGUCUGGGCAAAAUGUUUGGUUUUUUCUCUUAAAAAAAAUAACACCCCAUUACCAAAAGAAAAGGUAAGGUGUGGAAUUCUCGGGUGCCAA | 0.753
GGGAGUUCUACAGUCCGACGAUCGUUUGUUAAGAGCUGUCUUUAGCAUUCUGCUGGAAGAAUUUUGGGAGCAACAGACUGGGACAGAGCCUGCCAGCUGUGGUGGUGAUCUUUGGCAGUGCUAAGGCAAAGGAUGGAAUUCUCGGGUGCCAA | 0.938
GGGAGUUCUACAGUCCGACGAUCCUAUGCUCAGAUGUCAGAUCCUCUUGUUAUUAGUGUGUCUUGUUCUGCACAGUGCAGGAGACUUUAUUCCUUUGGAAAAUUCACUGUUCCACAAACAGCAGGCUGAAUGGUGGAAUUCUCGGGUGCCAA | 0.501
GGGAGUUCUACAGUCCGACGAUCGGAUCUGAAAAGACAAGGACUGCUCUAGUGUUCAGGGAUGUAGCUCAGCUUUUGGGCUAGCCCAGGCUUCCCUAAGAUCUGCUUUUUCUAUUUCUCCCAACCAAAUCCUCUGGAAUUCUCGGGUGCCAA | 0.289
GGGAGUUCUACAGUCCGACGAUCGGCUGCCCUCUGUAGAGCUGUGAGAGCAGUGGGGGCUGCCCUCUGUAGAGCUGUGAGAGCAGUGGGGGCUGCCCUCUGUAGAGCUGUGAGAGCAGUGGGGGCUGCCCUCUUGGAAUUCUCGGGUGCCAA | 0.618
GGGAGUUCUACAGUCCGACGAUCUGGAUCAAACAGGACCACCUCCCUCUGCGUCAGCCAUUUAAAAUUGGGGGAGGGAAGAGAUCCAGUGCAAGUGUGGGAAGAAACUGGAAUGACGAUUUUGAUUAGGCCACUGGAAUUCUCGGGUGCCAA | 1.72
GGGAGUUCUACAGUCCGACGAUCUUAAAAAUAAUUUCUAUUCAAAAUACAUGCAUAAUUGAUUUUACACCUCAUUACUGGUGGAUAAUUUAUGUGAUGUGGAUUGCUGGUGUCCAGCAUGACCCAUAAACAGGUGGAAUUCUCGGGUGCCAA | 1.59
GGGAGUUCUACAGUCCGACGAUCAUAGAGUAUAGCUCUGUAGUGGAAUAUGUCUUCUGUAUAACUAGGCUGUUAACCUAUGAUUGUAAAGUAGCUGUAAGAAUUUCCCAGUGAAAUAAAAAAAAAUUUUAAGUUGGAAUUCUCGGGUGCCAA | 0.881

Sample 5
Target: ABI1, truncated, D143A, DHFR fusion (Arabidopsis thaliana, UniProt P49597)
Method: DHFR PCA, dose-response
Sample: yeast
Setting: Hill fit, mean, not affinity
Together with: (+)-ABA, dose series
Reading: lower = more sensitive
Starting sequence: PYL1, truncated, DHFR fusion (Arabidopsis thaliana, UniProt Q8VZS8); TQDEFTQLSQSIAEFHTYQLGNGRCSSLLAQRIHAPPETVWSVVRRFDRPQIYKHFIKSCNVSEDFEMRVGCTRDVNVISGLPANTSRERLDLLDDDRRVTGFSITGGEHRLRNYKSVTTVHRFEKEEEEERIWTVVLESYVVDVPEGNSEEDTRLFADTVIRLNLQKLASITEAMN
Variant | ABA EC50 [µM]
L93V | 1.6
I52K | 6.17
R113W | 23.2
S11D | 1.67
G148E | 12.2
G102C | 75.2
R111Y | 89.5
I12N | 169
Q7A | 1.73
V62H | 60.4
L20G | 2.3
F124K | 25.9
L164R | 1.67
H122A | 186
Q7V | 2.16
I133P | 0.865
G108N | 178
E67V | 2.17
S26M | 7.63
R163K | 2.99
D92M | 48.3
